Measurements from different studies.
Compare with care: the assays were run in different laboratories. Values joined by “and” are separate records of one study, mostly repeats; a detail may differ. ± gives the spread as reported.

Compound = CCCCCCCCC(=O)c1cc(O)c(O)c(O)c1; cell line = COS-7; setting = 30 µM, 24 h, 0.1% DMSO, unit not given; scale = reference: vehicle control; endpoint = apoptotic cells; value = 1.44 ± 0.42
Compound = COc1cc2ncnc(Nc3ccc(Oc4ccccc4)c(C)c3C)c2cc1OC.Cl; cell line = COLO 205 (BRAF V600E); test = resazurin; setting = 0.3 µM, 72 h, unit not given, together with: trametinib; scale = reference: DMSO; endpoint = viability; value = 0.882
Compound = C=C(c1ccc(C(=O)O)cc1)c1cc2c(cc1C)C(C)(C)CCC2(C)C; cell line = COS-7; test = WST-8; setting = 100 µM, 24 h, 0.1% DMSO, unit not given; scale = reference: control; endpoint = metabolic activity; value = 0.15 ± 0.01
Compound = CCN(CCO)CCCC(C)Nc1ccnc2cc(Cl)ccc12 (stereo not drawn); cell line = hiPSC-derived ventricular cardiomyocytes; test = IKr current; setting = 10 µM; endpoint = inhibition; value = 76.1%
Compound = CCN(CC)Cc1cc(Nc2ccnc3cc(Cl)ccc23)ccc1O; cell line = COS-7; setting = 30 µM, 24 h, 0.1% DMSO, unit not given; scale = reference: vehicle control; endpoint = apoptotic cells; value = 3.6 ± 0.99
Compound = COc1cccc(-c2n[nH]c(SCc3ccccn3)n2)c1OC; cell line = CHO-WBL; setting = 300 µg/mL, 3 h, without S9; endpoint = micronuclei per binucleated cell; value = 0.013
Compound = COc1cccc2c1C(=O)c1c(O)c3c(c(O)c1C2=O)C[C@@](O)(C(=O)CO)C[C@@H]3O[C@H]1C[C@H](N)[C@H](O)[C@H](C)O1; cell line = THLE-2 transduced with P450 mix; test = metabolism-induced cytotoxicity; setting = 48 h, 3D Matrigel spots; endpoint = IC50; value = 4.4 ± 0.5 µM
Compound = Cc1ccc(C(C)C)cc1Oc1nccc(-c2c(-c3ccc(C(F)(F)F)cc3)ncn2C2CCNCC2)n1; cell line = transformed sinusoidal endothelial cells (mouse); test = cell viability, XTT; setting = 4 h; endpoint = concentration reducing viability; value = > 10 µM
Compound = CC(=O)c1c(C)cc2cc(O)cc(O[C@@H]3O[C@H](CO)[C@@H](O)[C@H](O)[C@H]3O)c2c1O; cell line = HepaRG co-cultured with HK-2; test = MTT; setting = 133.33 µM, 48 h; scale = reference: untreated control; endpoint = cell viability; value = 69.4 ± 11.2%
Compound = COc1cc2ncnc(Nc3ccc(Oc4ccccc4)cc3C)c2cc1OC.O=C(O)C(F)(F)F; cell line = COLO 205 (BRAF V600E); test = resazurin; setting = 0.3 µM, 72 h, together with: trametinib 0 nM; endpoint = viability; value = 0.874 fraction of control
Compound = CC[C@H](C)C(=O)O[C@H]1C[C@H](O)C=C2C=C[C@H](C)[C@H](CC[C@@H](O)C[C@@H](O)CC(=O)O)[C@H]21; cell line = COS-7; setting = 10 µM, 24 h, 0.1% DMSO, unit not given; scale = reference: vehicle control; endpoint = confluence; value = 1 ± 0.03
Compound = O=C(O)c1cc(O)c2c(c1)C(=O)c1cccc(O)c1C2=O; cell line = HepaRG co-cultured with HK-2; test = MTT; setting = 133.33 µM, 48 h; scale = reference: untreated control; endpoint = cell viability; value = 8.87 ± 2.02%
Compound = Cc1ccc(CNC(=O)Cn2cc(CSc3nc4ccccc4[nH]3)nn2)cc1; cell line = HEK293; test = MTT; setting = 500 ppm; endpoint = viability; value = 9.11%
Compound = CC1=CC[C@H]2[C@@H]([C@@H]1CC[C@H]1[C@]3(C)CC[C@H](O)C(C)(C)O[C@H]3CC[C@]1(C)O)C(C)(C)CC[C@]2(C)O; cell line = HEK293 MRP7 transfected; test = cell viability, MTT; setting = 72 h; endpoint = IC50; value = > 50 µM
Compound = COc1cccc(-c2ccc(NC(=O)C3=C(C(=O)O)CCC3)c(F)c2)c1; cell line = COS-7; setting = 10 µM, 24 h, 0.1% DMSO, unit not given; scale = reference: vehicle control; endpoint = confluence; value = 0.91 ± 0.03
Compound = Cc1cc(Cl)cc2sc(N(CCCn3ccnc3)C(=O)C3CC3)nc12; cell line = human cells; endpoint = CC50; value = 46.4 µM
Compound = COc1c(O)c(C)cc2c1C(=O)c1c(O)cccc1C2=O; cell line = HepaRG co-cultured with HK-2; test = MTT; setting = 66.67 µM, 24 h; scale = reference: untreated control; endpoint = cell viability; value = 86.8 ± 16.6%
Compound = O=C(NC[C@H](O)CO)c1ccncc1Nc1ccc(I)cc1F; cell line = A-431; test = WST-8; setting = 1 µM, 25 h, together with: IFN-γ; endpoint = viability; value = 115%
Compound = CC1CS(=O)(=O)CCN1/N=C/c1ccc([N+](=O)[O-])o1 (stereo not drawn); cell line = PMA-differentiated THP-1 macrophages; setting = 200 µM, 24 h; endpoint = viability; value = 76.1 ± 18.4%
Compound = CCN1CCN(c2cc(N3CCN(CC)CC3)nc(NCCNc3ccnc4cc(Cl)ccc34)n2)CC1; cell line = COS-7; setting = 20 µM, 24 h, 0.1% DMSO, unit not given; scale = reference: vehicle control; endpoint = necrotic cells; value = 1.3 ± 0.31
Compound = CCc1c(-c2ccccc2)c(-c2ccccc2)nn1-c1ccccc1-c1cccc(OCC(=O)O)c1; cell line = mouse bone marrow macrophages; test = CCK-8; setting = 20 µM, 4000 cells; scale = reference: untreated; endpoint = viability; value = 93.7% and 82% and 80.5% and 85.8% and 77.5% and 97.1%
Compound = Cc1cc(C(=O)NC(C)(C)COc2cccc3c2C(N)=NS(=O)(=O)N3)cc(C)n1; cell line = human peripheral blood lymphocytes; test = CBPI, concurrent micronucleus test; setting = 1000 µg/mL, 24 h; scale = reference: vehicle control; endpoint = cytotoxicity; value = 4%
Compound = c1cc(-c2cc(N3CCNCC3)c3c4c(sc3n2)CCCC4)ccn1; cell line = bovine primary retinal endothelial; test = Transwell; setting = 1 µM, together with: VEGF, RITC-dextran 70 kDa; endpoint = VEGF-induced permeability; value = no effect
Compound = COc1ccc2c(Cc3ccccc3F)c3[n+](cc2c1OC)CCc1cc2c(cc1-3)OCO2; cell line = HFL1; test = cytotoxicity, CCK-8; setting = 24 h; endpoint = IC50; value = 63.4 µM
Compound = COC[C@@H](CC(C)C)NC(=O)c1ccc(C)c(C)c1; cell line = primary human lymphocytes; test = refers to: structural aberrations; setting = 322 µg/mL, 4 h, without S9; endpoint = cells with aberrations; value = 0%
Compound = CN1CC[C@H](c2c(O)cc(O)c3c(=O)cc(-c4ccccc4Cl)oc23)[C@H](O)C1; cell line = COS-7; test = WST-8; setting = 100 µM, 24 h, 0.1% DMSO, unit not given; scale = reference: control; endpoint = metabolic activity; value = 0.7 ± 0.25
Compound = COc1c(O[C@@H]2O[C@H](CO)[C@@H](O)[C@H](O)[C@H]2O)c(C)cc2c1C(=O)c1c(O)cccc1C2=O; cell line = HepaRG co-cultured with HK-2; test = MTT; setting = 133.33 µM, 48 h; scale = reference: untreated control; endpoint = cell viability; value = 48 ± 2.45%
Compound = Cn1c(=O)c(F)c(Nc2ccc(I)cc2F)c2c(=O)n(C[C@@H](O)CO)cnc21; cell line = A-431; test = WST-8; setting = 1 µM, 25 h, together with: IFN-γ; endpoint = viability; value = 102%
Compound = Cc1cc(O)c2c(c1)C(=O)c1cccc(O)c1C2=O; cell line = HepaRG co-cultured with HK-2; test = MTT; setting = 266.67 µM, 24 h; scale = reference: untreated control; endpoint = cell viability; value = 98.5 ± 9.31%
Compound = CC(=O)Nc1cccc(-n2c(=O)n(C3CC3)c(=O)c3c(Nc4ccc(I)cc4F)n(C)c(=O)c(C)c32)c1; cell line = SW1417; setting = 0.1 µM, 72 h, unit not given; scale = reference: DMSO; endpoint = viability; value = 0.824 and 0.351 and 1.01 and 0.828 and 0.58 and 0.498
Compound = C=C(C)[C@@H]1CC[C@]2(C)CC[C@]3(C)[C@H](CC[C@@H]4[C@@]5(C)CC[C@H](O)C(C)(C)[C@@H]5CC[C@]43C)[C@@H]12; cell line = human gingival fibroblasts; test = cytotoxicity; setting = 48 h; endpoint = IC50; value = > 100 mg/L
Compound = CCN(CC)CCCC(C)Nc1ccnc2cc(Cl)ccc12 (stereo not drawn); cell line = hiPSC-derived ventricular cardiomyocytes; test = IKr current, perforated patch clamp; setting = 5 µM; endpoint = peak current; value = 7.5 pA and 2.6 pA and 32.2 pA and 6.2 pA
Compound = O=C(O)c1cc(O)c2c(c1)C(=O)c1cccc(O[C@@H]3O[C@H](CO)[C@@H](O)[C@H](O)[C@H]3O)c1C2=O; cell line = HepaRG co-cultured with HK-2; test = MTT; setting = 16.67 µM, 48 h; scale = reference: untreated control; endpoint = cell viability; value = 79.3 ± 9.76%
Compound = COc1cccc2c1C(=O)c1c(O)c3c(c(O)c1C2=O)C[C@@](O)(C(=O)CO)C[C@@H]3O[C@H]1C[C@H](N)[C@H](O)[C@H](C)O1; cell line = COS-7; setting = 100 µM, 24 h, 0.1% DMSO, unit not given; scale = reference: control; endpoint = confluence; value = 0.73 ± 0.11
Compound = COc1cc2c(c(OC)c1OC)C(=O)c1c(cc(C)c(O)c1OC)C2=O; cell line = HepaRG co-cultured with HK-2; test = MTT; setting = 16.67 µM, 24 h; scale = reference: untreated control; endpoint = cell viability; value = 108 ± 19%
Compound = [Cl][Ru][Cl].c1cnc2c(c1)ccc1cccnc12.c1cnc2c(c1)ccc1cccnc12.c1cnc2c(c1)ccc1cccnc12; cell line = SK-MEL-28; setting = concentration not given, normoxia, together with: green light 523 nm; endpoint = photocytotoxicity; value = inactive

Some of these lines once more:
Compound = Cc1ccc(CNC(=O)Cn2cc(CSc3nc4ccccc4[nH]3)nn2)cc1; cell line = HEK293; test = MTT; setting = 500 ppm; endpoint = viability; value = 9.11%
Compound = CC1=CC[C@H]2[C@@H]([C@@H]1CC[C@H]1[C@]3(C)CC[C@H](O)C(C)(C)O[C@H]3CC[C@]1(C)O)C(C)(C)CC[C@]2(C)O; cell line = HEK293 MRP7 transfected; test = cell viability, MTT; setting = 72 h; endpoint = IC50; value = > 50 µM
Compound = COc1cccc(-c2ccc(NC(=O)C3=C(C(=O)O)CCC3)c(F)c2)c1; cell line = COS-7; setting = 10 µM, 24 h, 0.1% DMSO, unit not given; scale = reference: vehicle control; endpoint = confluence; value = 0.91 ± 0.03
